Assay results gathered from unrelated publications.
Each line is one published result; not all experiments were run side by side.
Organism: Mycobacterium tuberculosis

| Compound | test | test system | setting | MIC |
| --- | --- | --- | --- | --- |
| O=C1c2ccccc2C(=O)N1c1ccccc1Br | microbial growth | H37RV | – | > 200 µM |
| [H]/N=C(/N)N[C@H]1[C@H](O)[C@@H](O)[C@H](O[C@@H]2O[C@@H](C)[C@](O)(C=O)[C@H]2O[C@@H]2O[C@@H](CO)[C@H](O)[C@@H](O)[C@@H]2NC)[C@@H](N/C(N)=N\[H])[C@@H]1O | MABA | H37Rv ATCC 27294 | – | 6.25 µg/mL |
| CC(C)=CCC/C(C)=C/CC/C(C)=C/CNCCOC1C2CC3CC(C2)CC1C3 (stereo not drawn) | – | Erdman | – | 1 µg/mL |
| CCOC(=O)c1sc(N/N=C/c2c(-c3ccc(F)cc3)nc3ncccn23)nc1C | MABA | H37Rv ATCC 27294 | – | 1.6 µg/mL |
| COc1ccccc1C(CC(=O)c1cccc(Oc2ccccc2)c1)C(N)=O (stereo not drawn) | microbial growth, resazurin | H37RV | – | 50 µg/mL |
| Cc1ccc2nc(C(F)(F)F)c(C(=O)NCc3cccc(Cl)c3)n2c1 | microbial growth, resazurin | H37RV | – | 0.19 µM |
| Cc1ccc2nc(C)c(C(=O)NCc3ccccc3)n2c1 | microbial growth | H37RV | 5 days | 0.006 µM |
| CSC(=NNC(=O)c1ccc([N+](=O)[O-])cc1)SC | – | H37Rv | – | 6.2 µg/mL |
| Cc1ccc2nc(C)c(CC(=O)NCc3ccc(N(C)C)cc3)n2c1 | – | H37Rv, replicating | – | 1 to 3 µM |
| O=c1nc(N2CCC(Oc3ccccc3F)CC2)sc2c([N+](=O)[O-])cc(C(F)(F)F)cc12 | microbial growth | H37RA | – | 0.016 µM |
| CC1C(=NOCc2cc(-c3ccc(Cl)cc3)no2)C(C)C(c2ccc(Cl)cc2)OC1c1ccc(Cl)cc1 (stereo not drawn) | microbial growth, resazurin | H37RV | – | 3.12 µg/mL |
| CC(=O)c1sc(N/N=C/c2c(-c3ccc(C)cc3)nc3ncccn23)nc1C | MABA | H37Rv ATCC 27294 | – | 12.5 µg/mL |
| CO[C@H]1[C@@H](O)[C@H](n2ccc(=O)[nH]c2=O)O[C@@H]1[C@@H](O[C@H]1OC(C(=O)N[C@H]2N=C(c3ccccc3)c3ccccc3NC2=O)=C[C@H](O)[C@@H]1O)C(N)=O | microbial growth, resazurin | H37RV | – | 2.5 µg/mL |
| CC1=C[C@@]2(C)C(=C(C)[C@H]3[C@@H]4C[C@H](C)C[C@H](C)[C@H]4[C@H]4Oc5ccc(cc5)C[C@]5(O)NC(=O)[C@]6(O[C@H]65)C(=O)[C@@H]2[C@@H]43)[C@H]1C | microbial growth, resazurin | H37RV | – | > 100 µM |
| COc1ccc(-c2cc(-c3ccc(-n4cccc4)cc3)nc(N)n2)c(OC)c1 | microbial growth, resazurin | H37RV | 7 days | 3.12 µg/mL |
| C#CCN(Cc1ccc2[nH]c(N)nc(=O)c2c1)c1ccc(C(=O)N[C@@H](CCC(=O)O)C(=O)O)cc1 | – | pptT knockdown with ATc | – | 76.7 µM |
| COc1ccc2nc(C)cc(OCC(=O)Nc3ccccc3OC)c2c1 | microbial growth, resazurin | H37RV | – | 0.7 µM |
| Cc1cc(C)c2cc(C(=O)NC3CCCCC3)[nH]c2c1 | microbial growth | H37RV | – | 0.125 to 0.25 µg/mL |
| Cc1cc(-c2ccccc2)[nH]c(=O)c1CNC(=O)c1ccc(C(F)(F)F)nc1 | microbial growth, resazurin | H37RV | – | > 12.5 µg/mL |
| N#Cc1cc(C(=O)c2ccc3ccccc3c2O)c[nH]c1=O | Microplate Alamar Blue | RCMB 010126 | – | 15.6 µg/mL |
| CC(C)=CCNCCOC1C2CC3CC(C2)CC1C3 (stereo not drawn) | – | Erdman | – | 4 µg/mL |
| COc1cccc(C=CC(=O)c2ccc(-n3cccc3)cc2)c1O | microbial growth, resazurin | H37RV | 7 days | 3.12 µg/mL |
| C#CCN(Cc1ccc2[nH]cnc(=O)c2c1)c1ccc(C(=O)N[C@@H](CCC(=O)O)C(=O)O)cc1 | – | pptT knockdown with ATc | – | > 100 µM |
| CC(C)c1ccc(C=CC(=O)c2ccc(-n3cccc3)cc2)cc1 | microbial growth, resazurin | H37RV | 7 days | 12.5 µg/mL |
| CCOC(=O)/C=C1/SC(N/N=C/c2c(-c3ccc(Cl)cc3)nc3ncccn23)=NC1=O | MABA | H37Rv ATCC 27294 | – | 25 µg/mL |
| O=C(Nc1ccc(F)c(F)c1F)NC1C2CC3CC(C2)CC1C3 (stereo not drawn) | microbial growth | H37RV | – | 0.0313 to 0.0625 µg/mL |

| Compound | test | test system | setting | MIC |
| --- | --- | --- | --- | --- |
| CC1C(=NNC(=O)c2ccncc2)C(C)C(c2ccc(Br)cc2)OC1c1ccc(Br)cc1 (stereo not drawn) | microbial growth, resazurin | H37RV | – | 0.78 µg/mL |
| COC(=O)[C@H](CCCNC(=O)OC(C)(C)C)NC(=O)c1ccc(NCc2ccc3nc(N)nc(N)c3c2Cl)cc1 | – | pptT knockdown with ATc | – | < 0.1 µM |
| CC(=O)c1sc(N/N=C/c2c(-c3ccc(F)cc3)nc3ncccn23)nc1C | MABA | H37Rv ATCC 27294 | – | 3.12 µg/mL |
| CCc1ccn2c(C(=O)N(C)Cc3ccccc3)c(C)nc2c1 | – | H37Rv, replicating | – | 16 to 37 µM |
| Nc1nc(-c2ccc(-n3cccc3)cc2)cc(-c2ccc(Cl)cc2Cl)n1 | microbial growth, resazurin | H37RV | 7 days | 6.25 µg/mL |
| O=C1c2ccccc2C(=O)N1c1nnc(-c2ccc(Cl)cc2)s1 | microbial growth | H37RV | – | > 200 µM |
| CCOC(=O)c1sc(N/N=C/c2c(-c3ccc(Br)cc3)nc3ncccn23)nc1C | MABA | H37Rv ATCC 27294 | – | 6.25 µg/mL |
| Cc1ccc2nc(C)c(C(=O)C(=O)NCc3ccc(N(C)C)cc3)n2c1 | – | H37Rv, replicating | – | 5 to 14 µM |
| COc1ccc(CCNc2cc(-c3ccccc3)nc3ncnn23)cc1 | microbial growth, resazurin | H37RV | – | 0.94 µM |
| CC1C(=NOCc2cn(-c3ccccc3)nn2)C(C)C(c2ccc(Br)cc2)OC1c1ccc(Br)cc1 (stereo not drawn) | microbial growth, resazurin | H37RV | – | 3.12 µg/mL |
| Cc1ccc(CNC(=O)Cc2c(C)nc3ccc(C)cn23)cc1 | microbial growth | H37RV | 5 days | 2 µM |
| COc1ccc(C(CC(=O)c2cccc(Oc3ccccc3)c2)C(N)=O)cc1 (stereo not drawn) | microbial growth, resazurin | H37RV | – | > 100 µg/mL |
| CC(=O)NC1C(OC2OC(CC(O)C3OC(n4ccc(=O)[nH]c4=O)C(O)C3O)C(O)C(O)C2NC(=O)COCc2ccc(N3CCC(Oc4ccc(OC(F)(F)F)cc4)CC3)cc2)OC(CO)C(O)C1O (stereo not drawn) | – | H37Rv | – | > 50 µg/mL |
| CCOC(=O)C(CC)N1CCN(c2nc(=O)c3cc(C(F)(F)F)cc([N+](=O)[O-])c3s2)CC1 (stereo not drawn) | microbial growth | H37RA | – | 0.031 µM |
| C#CCN(Cc1ccc2nc(N)nc(N)c2c1)c1ccc(C(=O)N[C@@H](CCC(=O)OCC)C(=O)OCC)cc1 | – | pptT knockdown with ATc | – | < 0.1 µM |
| COc1ccc2nc(C)cc(OCC(=O)Nc3cc(C)cc(C)c3)c2c1 | microbial growth, resazurin | H37RV | – | 0.25 µM |
| O=c1nc(N2CCC(Oc3ncc(F)cn3)CC2)sc2c([N+](=O)[O-])cc(C(F)(F)F)cc12 | microbial growth | H37RA | – | 0.008 µM |
| CNc1nc(SC)nc2ccccc12 | microbial growth, resazurin | H37RV | – | 0.13 µM |
| O=C(Cc1csc2nc(-c3ccc(Br)cc3)cn12)NN=C1CCCC1 | – | H37Rv | – | 16300 µg/mL |
| Cc1c2c([nH]c(=O)c1CNC(=O)c1ccc(C(F)(F)F)nc1)CCCC2 | microbial growth, resazurin | H37RV | – | > 50 µg/mL |
| C#CCN(Cc1ccc2[nH]c(C)nc(=O)c2c1)c1ccc(C(=O)N[C@@H](CCC(=O)O)C(=O)O)cc1 | – | pptT knockdown with ATc | – | > 100 µM |
| CCOC(=O)c1cnc(N/N=C/c2c(-c3ccccc3)nc3ncccn23)s1 | MABA | H37Rv ATCC 27294 | – | 12.5 µg/mL |
| O=c1nc(N2CCC(Oc3ccccc3Cl)CC2)sc2c([N+](=O)[O-])cc(C(F)(F)F)cc12 | microbial growth | H37RA | – | 0.031 µM |
| CCOC(=O)c1sc(N/N=C/c2c(-c3ccc(C#N)cc3)nc3ncccn23)nc1C | MABA | H37Rv ATCC 27294 | – | 12.5 µg/mL |
| Cc1ccc2nc(C)c(C(=O)NCc3ccc(C(F)(F)F)cc3)n2c1 | low oxygen recovery | H37Rv | non-replicating low oxygen | > 10 µM |

Some of these lines once more:
| Compound | test | test system | setting | MIC |
| --- | --- | --- | --- | --- |
| Cc1ccc2nc(C)c(C(=O)C(=O)NCc3ccc(N(C)C)cc3)n2c1 | – | H37Rv, replicating | – | 5 to 14 µM |
| COc1ccc(CCNc2cc(-c3ccccc3)nc3ncnn23)cc1 | microbial growth, resazurin | H37RV | – | 0.94 µM |
| CC1C(=NOCc2cn(-c3ccccc3)nn2)C(C)C(c2ccc(Br)cc2)OC1c1ccc(Br)cc1 (stereo not drawn) | microbial growth, resazurin | H37RV | – | 3.12 µg/mL |
| Cc1ccc(CNC(=O)Cc2c(C)nc3ccc(C)cn23)cc1 | microbial growth | H37RV | 5 days | 2 µM |
| COc1ccc(C(CC(=O)c2cccc(Oc3ccccc3)c2)C(N)=O)cc1 (stereo not drawn) | microbial growth, resazurin | H37RV | – | > 100 µg/mL |
| CC(=O)NC1C(OC2OC(CC(O)C3OC(n4ccc(=O)[nH]c4=O)C(O)C3O)C(O)C(O)C2NC(=O)COCc2ccc(N3CCC(Oc4ccc(OC(F)(F)F)cc4)CC3)cc2)OC(CO)C(O)C1O (stereo not drawn) | – | H37Rv | – | > 50 µg/mL |
| CCOC(=O)C(CC)N1CCN(c2nc(=O)c3cc(C(F)(F)F)cc([N+](=O)[O-])c3s2)CC1 (stereo not drawn) | microbial growth | H37RA | – | 0.031 µM |
| C#CCN(Cc1ccc2nc(N)nc(N)c2c1)c1ccc(C(=O)N[C@@H](CCC(=O)OCC)C(=O)OCC)cc1 | – | pptT knockdown with ATc | – | < 0.1 µM |
